Assay results of several laboratories.
Every numbered part comes from another study and shows a few of its results, in no order.

Block 1 — method: universal PBM; molecule type: double-stranded DNA, one strand shown; sample: in vitro; concentration: not given; direction: higher = stronger binding
Target: Sal-like protein 4, full length isoform B (SALL4, Homo sapiens, UniProt Q9UJQ4-2, residues 1-616)
Notes: 8-mer, flanks averaged, mean of replicates
Construct (chain): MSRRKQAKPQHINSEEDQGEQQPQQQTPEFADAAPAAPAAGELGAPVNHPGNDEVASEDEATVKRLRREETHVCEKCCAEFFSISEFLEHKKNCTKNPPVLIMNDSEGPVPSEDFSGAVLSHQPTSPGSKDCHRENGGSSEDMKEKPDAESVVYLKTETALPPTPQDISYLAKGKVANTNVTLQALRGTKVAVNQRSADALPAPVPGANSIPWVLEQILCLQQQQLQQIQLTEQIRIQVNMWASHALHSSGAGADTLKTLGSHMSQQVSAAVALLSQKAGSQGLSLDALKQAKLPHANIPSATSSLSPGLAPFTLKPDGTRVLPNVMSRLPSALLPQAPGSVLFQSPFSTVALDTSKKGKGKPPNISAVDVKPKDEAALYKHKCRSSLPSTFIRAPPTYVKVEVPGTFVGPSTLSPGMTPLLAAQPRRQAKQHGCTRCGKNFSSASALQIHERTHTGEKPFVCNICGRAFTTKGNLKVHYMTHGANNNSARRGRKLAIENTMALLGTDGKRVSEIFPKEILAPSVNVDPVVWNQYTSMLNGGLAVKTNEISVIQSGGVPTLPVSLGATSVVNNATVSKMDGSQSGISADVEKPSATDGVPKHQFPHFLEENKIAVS
The E-score of `AGACCATA` is reported as 0.206.
With `CCTTGTGA` the E-score was 0.0134.
The E-score of `ACAACCTC` is reported as 0.00891.

Block 2 — method: protein binding microarray; molecule type: double-stranded DNA, one strand shown; sample: in vitro; concentration: not given; relative to: not given; direction: higher = stronger binding
Target: Histone acetyltransferase KAT6A, winged helix 1, GST fusion (KAT6A, Homo sapiens, UniProt Q92794, residues 1-85)
Notes: 8-mer, flanks averaged, mean of 2 arrays, mostly near background
Residues (chain): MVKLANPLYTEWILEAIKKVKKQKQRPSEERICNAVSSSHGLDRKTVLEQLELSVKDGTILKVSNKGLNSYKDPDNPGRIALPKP
For `CCTCATTA`, the E-score was -0.125.
With `ACAAGATG` the E-score was -0.244.
The E-score of `GAGGACAA` is reported as -0.121.

Block 3 — method: RNAcompete; molecule type: RNA; sample: in vitro; concentration: 20 nM; notes: 7-mer, probes averaged, single round; relative to: mean of 7-mers; direction: higher = stronger binding
Target: PABPC1L2, full length, GST fusion (mouse, UniProt A0ABA7IW68)
Residues (chain): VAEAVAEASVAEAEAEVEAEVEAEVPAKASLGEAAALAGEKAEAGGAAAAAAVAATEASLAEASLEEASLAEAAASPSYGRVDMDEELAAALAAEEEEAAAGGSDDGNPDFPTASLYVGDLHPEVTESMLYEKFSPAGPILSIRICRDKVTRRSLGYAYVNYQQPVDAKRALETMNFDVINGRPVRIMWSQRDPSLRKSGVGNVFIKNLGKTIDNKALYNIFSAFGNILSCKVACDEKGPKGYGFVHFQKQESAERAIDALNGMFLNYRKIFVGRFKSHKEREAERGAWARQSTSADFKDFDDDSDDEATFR
For `CGUGCUU`, the 7-mer Z-score was -0.206.
The 7-mer Z-score of `GAUGCAG` is reported as -0.0899.
`UGAGGUU` has a 7-mer Z-score of -0.228.

Other studies, line by line
With `PhoQ, residues 284 288 289 292 302 303 TNSAEL` the fold induction was 1.08 (PhoP, residues 12 14 15 18 19 NFCKL (Escherichia coli, UniProt P23836); Sort-seq, measured: YFP reporter; E. coli; PhoQ-PhoP variant library, added: 10 µM Mg2+; relative to: high Mg2+ state, higher = stronger signaling).

Excerpt of the above (block 2):
With `ACAAGATG` the E-score was -0.244.
